Earlier results, collected from citations in different studies.
Each line is one published result; not all experiments were run side by side.

| SMILES | tested on | assay | system | setting | quantity | value |
| --- | --- | --- | --- | --- | --- | --- |
| C#C[C@]1(CO)O[C@@H](n2cnc3c(N)nc(F)nc32)C[C@@H]1O |  |  | human, plasma | 30 mg, high-fat meal | median Tmax | 1.25 h |
| CNC(=C[N+](=O)[O-])NCCSCc1ccc(CN(C)C)o1 | Toxoplasma gondii | parasite growth |  | concentration not given, published screen | activity class | inactive |
| O=C1Nc2c(C(F)(F)F)cccc2[C@@]1(c1ccc(O)cc1)c1ccc(OC(F)(F)F)cc1 |  |  | mouse | oral | tolerated dose | > 150 mg/kg |
| COC(=O)[C@H](c1ccccc1Cl)N1CCc2sccc2C1 | CES2 |  |  |  | Km | 14.1 µM |
| COC(=O)[C@H](c1ccccc1Cl)N1CCc2sccc2C1 | OATP1B1 |  |  |  | Ki | 1980 nM |
| O=C(O)c1cn(C2CC2)c2cc(N3CCNCC3)c(F)cc2c1=O | HepG2 | mitochondrial membrane potential |  | concentration not given, Tox21 | activity outcome | inactive |
| Cc1ccc(C)c(OCCCC(C)(C)C(=O)O)c1 | OATP1B1 |  |  |  | Ki | 4000 to 381000 nM |
| Cn1c(Cn2ccc(C(F)(F)F)c(Oc3cc(Cl)cc(C#N)c3)c2=O)n[nH]c1=O |  |  | human subjects | dose not given, up to 48 weeks | Dizziness incidence | 5% |
| Cc1cccc(C)c1OCC(=O)N[C@@H](Cc1ccccc1)[C@@H](O)C[C@H](Cc1ccccc1)NC(=O)[C@H](C(C)C)N1CCCNC1=O | HepG2 | mitochondrial membrane potential |  | concentration not given, Tox21 | mitochondrial toxicity | active |
